Assay results pooled from the literature.
Numbered parts are unrelated; each lists some results of a single study. Substitutions count along the parent as printed.

Sample 1
Target: Interferon regulatory factor 5, full length, phosphomimetic (IRF5, Homo sapiens, UniProt Q13568-2, residues 1-514, K96S/S451D/S453D/S456D/S462D)
Method: protein-binding microarray
Molecule type: double-stranded DNA, one strand shown
Medium: in vitro
Concentration: 250 nM
Notes: 60-bp whole probe
Together with: salmon DNA 0.4 mg/ml
Reference: random background probes
Reading: higher = stronger binding
Measurement: log fluorescence
Shared flanks, not repeated: GCCTAGCAC … GTCTTGATTCGCTTGACGCTGCTG
TTAGATTTCAGTCTCGATCAGTGCTAG: 2.68 z-score
TTAGGGATCGGGTATCGGTTAGTGCTA: 3.86 z-score
GACGGTATCGGGACTGCGGACGTGCTA: 1.31 z-score
GACGATTTTAGTTCCGAGACGTGCTAG: 0.506 z-score
TTAGATATCAGGTATCGATTAGTGCTA: 4.52 z-score
GAGAAAATGATTTTTTTCATGTGCTAG: 0.972 z-score
TAAGGACTGGGGTTTCGGTTAGTGCTA: 7.04 z-score
TCAGATTTCAATTAAAAACTGTGCTAG: 1.32 z-score
AGGGTCATCCATCTGAACCAGTGCTAG: -0.56 z-score
TTAGTTATCAGTCTCGATTAGTGCTAG: 2.28 z-score
TCAACTTTCTATCTCTGACTGTGCTAG: 3.53 z-score
TTAGGTTCCGGTTTCTGTTAGTGCTAG: 5.35 z-score
TTAGTTATCAGTTTCGATTAGTGCTAG: 10.3 z-score
ACCCATTGAGATTTCCATTAGTGCTAG: 0.0204 z-score
GACGGTATCCTTTTACTGACGTGCTAG: 0.383 z-score
TTAGTTATCGGGTTTCGATTAGTGCTA: 8.12 z-score
CCCAATAATCTTTTCACTTTGTGCTAG: 1.43 z-score
TTAGGTCTCCTTCTCCTTTTGTGCTAG: -0.0195 z-score
GACTGTTTGGTCCTGATCCTGTGCTAG: -0.347 z-score
TTAGGCATCGACTTTCGGTTAGTGCTA: 9.6 z-score
TTAGGAGTGGACTATCGGTTAGTGCTA: 5.41 z-score
GACGGTATCCATATCCTGACGTGCTAG: 0.101 z-score
AACGGTATCGACACTGGGGACGTGCTA: 2.13 z-score
GACGGTCTTGGACTGGGGACGTGCTAG: -0.385 z-score
TCATTTATGGTTTTTTTACTGTGCTAG: 0.785 z-score

Sample 2
Target: ABI1, truncated, D143A, DHFR fusion (Arabidopsis thaliana)
Method: DHFR PCA, deep sequencing
Medium: yeast
Notes: methotrexate growth selection, single substitutions
Together with: (+)-ABA 1.4 µM
Reference: wild-type fitted maximum
Reading: higher = stronger binding
Measurement: relative binding score
Starting sequence: PYL1, truncated, DHFR fusion (Arabidopsis thaliana); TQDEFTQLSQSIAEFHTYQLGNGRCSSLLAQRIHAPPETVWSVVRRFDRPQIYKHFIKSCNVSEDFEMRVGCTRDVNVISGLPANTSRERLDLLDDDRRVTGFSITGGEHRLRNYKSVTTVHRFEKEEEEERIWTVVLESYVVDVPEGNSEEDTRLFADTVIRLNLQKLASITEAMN; partner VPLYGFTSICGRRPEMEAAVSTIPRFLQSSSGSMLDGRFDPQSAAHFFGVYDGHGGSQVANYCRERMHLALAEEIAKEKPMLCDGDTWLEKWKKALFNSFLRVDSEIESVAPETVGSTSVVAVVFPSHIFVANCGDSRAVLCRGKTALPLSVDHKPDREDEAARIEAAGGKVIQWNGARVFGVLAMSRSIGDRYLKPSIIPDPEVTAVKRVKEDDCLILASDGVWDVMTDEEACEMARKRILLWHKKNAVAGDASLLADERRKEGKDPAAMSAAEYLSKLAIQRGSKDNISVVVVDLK
Y141W: -15%
A84E: 14.7%
A35T: -2.68%
E109R: 12.7%
V76R: -10.2%
G21K: 48.2%
E128K: 47.7%
T1G: 60.7%
F66G: 51.8%
N22C: 40.8%
I12L: 11.1%
E125G: 60%
T73N: 11.4%
I105K: -5.4%
V161H: 30.5%

Sample 3
Target: Ras GTPase-activating protein-binding protein 1, RRM domain (G3BP1, Homo sapiens, UniProt Q13283)
Sequence of UniProt Q13283 (whole entry, looked up): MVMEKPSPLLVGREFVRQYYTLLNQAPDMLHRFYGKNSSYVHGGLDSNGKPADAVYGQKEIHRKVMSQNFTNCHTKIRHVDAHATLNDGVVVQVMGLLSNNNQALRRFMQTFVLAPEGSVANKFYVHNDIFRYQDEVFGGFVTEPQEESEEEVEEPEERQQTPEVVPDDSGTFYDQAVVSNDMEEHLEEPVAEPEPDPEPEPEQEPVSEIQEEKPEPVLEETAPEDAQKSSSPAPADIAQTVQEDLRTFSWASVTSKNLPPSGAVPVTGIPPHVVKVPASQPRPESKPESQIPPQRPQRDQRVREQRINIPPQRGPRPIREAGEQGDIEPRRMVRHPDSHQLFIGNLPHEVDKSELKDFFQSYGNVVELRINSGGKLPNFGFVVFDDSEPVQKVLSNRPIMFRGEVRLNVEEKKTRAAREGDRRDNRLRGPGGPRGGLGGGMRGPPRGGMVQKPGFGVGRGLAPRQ
Method: RNA Bind-n-Seq
Molecule type: RNA
Medium: in vitro
Concentration: 1 µM
Notes: whole 134-nt RNA, ends assumed
Together with: 150 mM KCl
Reference: input library
Reading: higher = stronger binding
Measurement: log2 enrichment
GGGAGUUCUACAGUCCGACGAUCCAAGUCCUGUGCUACACAUCGUAUGUACCGAAUCGGUUUUUUUGGUUUUUGGUGGAAAGUAUUAUGUUACGCCGUUCGGAUCUGCACUUCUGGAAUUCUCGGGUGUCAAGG: -0.406
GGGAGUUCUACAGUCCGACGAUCCUCAAGUCCUGUGCUACACAUCGUAUGUACCGAAUCGGAGGAAAAAGGUUUGGAAAGUAUUAUGUUACGCCGUUCGGAUCUGCACUUCCAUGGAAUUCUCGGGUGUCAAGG: -0.189
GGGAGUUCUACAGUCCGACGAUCCAAGUCCUGUGCUACACAUCGUAUGUACCGAAUCGGAAAAAAAGGUUUGGUUUGGAAAGUAUUAUGUUACGCCGUUCGGAUCUGCACUUCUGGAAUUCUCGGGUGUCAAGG: -0.281
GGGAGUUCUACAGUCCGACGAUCUAUCUUUAGAGGAGGAUCUGAUGGAUAUGGCAGUGGACGUGGAUUUGGGGAUGGCUAUAAUGGGUAUGGAGGAGGACCUGGAGGUGGCAAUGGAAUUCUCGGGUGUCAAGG: -0.79
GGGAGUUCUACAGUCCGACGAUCGUCCUGUGCUACACAUCGUAUGUACCGAAUCGGGGAAAAAGGGGUUUUUGGGGAGGGGAAAGUAUUAUGUUACGCCGUUCGGAUCUGCACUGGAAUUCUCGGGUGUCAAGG: 1.19
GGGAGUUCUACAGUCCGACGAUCCCUGUGCUACACAUCGUAUGUACCGAAUCGGCCCCCCCGGCCCCCCCGGGCCCCCCCGGGAAAGUAUUAUGUUACGCCGUUCGGAUCUGCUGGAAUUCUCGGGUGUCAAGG: -0.7
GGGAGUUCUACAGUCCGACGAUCCCUCAAGUCCUGUGCUACACAUCGUAUGUACCGAAUCGGGAGGGAGGAGGGGAAAGUAUUAUGUUACGCCGUUCGGAUCUGCACUUCCAGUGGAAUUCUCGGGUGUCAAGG: 0.29
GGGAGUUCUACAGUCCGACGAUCUAACUUUAGAGGAGGAUCUGAUGGAUAUGGCAGUGGACGUGGAUUUGGGGAUGGCUAUAAUGGGUAUGGAGGAGGACCUGGAGGUGGUAAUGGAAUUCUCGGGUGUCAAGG: -0.176
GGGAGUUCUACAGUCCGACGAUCUCAAGUCCUGUGCUACACAUCGUAUGUACCGAAUCGGAAAGGAGGAAAAAAAGGAAAGUAUUAUGUUACGCCGUUCGGAUCUGCACUUCCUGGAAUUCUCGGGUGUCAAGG: -0.221
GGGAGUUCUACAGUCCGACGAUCAAGUCCUGUGCUACACAUCGUAUGUACCGAAUCGGGUUUGGGAAAAAGGGUUUGGGAAAGUAUUAUGUUACGCCGUUCGGAUCUGCACUUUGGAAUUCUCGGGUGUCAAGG: 0.756
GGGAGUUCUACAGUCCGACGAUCUGGCUAGUCAGCAGCGGAUGUCCCCUCCAGGUUAAGAAAGCCGAACCAGAGCCGAUGCGAGAGGAGGAGAAAAUGAUUCCUCCUACGAAAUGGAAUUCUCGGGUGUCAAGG: -0.0636
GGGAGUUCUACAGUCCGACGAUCCUCAAGUCCUGUGCUACACAUCGUAUGUACCGAAUCGGGGAGGGGAGGGAGGGGAAAGUAUUAUGUUACGCCGUUCGGAUCUGCACUUCCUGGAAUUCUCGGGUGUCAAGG: 1.09
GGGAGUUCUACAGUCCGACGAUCCACAGACAACACGCACCCACACAGACACAGAGGGAAGGGGUUGGGAUGGGGACAGGGUGCAAAACAGGGCGGGGUAGGACCCCAGCCCCUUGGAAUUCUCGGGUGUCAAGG: -0.129
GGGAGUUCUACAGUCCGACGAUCAAGUCCUGUGCUACACAUCGUAUGUACCGAAUCGGUUUUGGGUUUUGGGGUUUUGGGAAAGUAUUAUGUUACGCCGUUCGGAUCUGCACUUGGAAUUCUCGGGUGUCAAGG: -0.163

Sample 4
Target: CEBPA, bZIP domain (human)
Method: DHFR protein complementation
Medium: yeast
Notes: single substitutions, most at no-binding floor
Reference: wild-type JUN-FOS pair
Reading: higher = stronger binding
Measurement: binding fitness
Starting sequence: JUN, bZIP domain (human); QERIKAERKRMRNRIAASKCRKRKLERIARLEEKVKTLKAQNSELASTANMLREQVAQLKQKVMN; partner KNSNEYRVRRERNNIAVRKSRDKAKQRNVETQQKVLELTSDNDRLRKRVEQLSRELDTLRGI
Q41I: -1.35 natural log
R30L: -1.39 natural log
L52D: -1.52 natural log
R53W: -1.45 natural log
A29T: -1.42 natural log
A49S: -1.52 natural log
L52C: -1.34 natural log
K36Q: -1.5 natural log
L52P: -1.46 natural log
K39G: -1.47 natural log
A46W: -1.46 natural log
K39V: -1.41 natural log
L59S: -1.47 natural log
E33C: -1.48 natural log
A49Y: -1.43 natural log
T48P: -1.51 natural log
S43Y: -1.49 natural log
A40D: -0.959 natural log
S43A: -1.33 natural log
L45T: -1.42 natural log
E32P: -1.53 natural log

Sample 5
Target: CCND1, cyclin fold, Cln2 fusion (human)
Method: yeast growth competition, sequencing
Medium: yeast
Notes: weak parent motif
Reference: not given
Reading: higher = stronger binding
Measurement: normalised enrichment score
Starting sequence: MICAL3 docking peptide (human); LQLRRQLSFSEDS
LQLRRQLSFSPDS [E11P]: 0.266
LQLRRQLSFSMDS [E11M]: -0.0765
LQLRRQLSFSEFS [D12F]: 0.512
LQLRRCLSFSEDS [Q6C]: 0.754
LQLRCQLSFSEDS [R5C]: 0.174
LQLRRQLSFSSDS [E11S]: 0.328
LQLRRQLSSSEDS [F9S]: -0.545
LQLRMQLSFSEDS [R5M]: 0.0562
LQDRRQLSFSEDS [L3D]: 0.0697
LELRRQLSFSEDS [Q2E]: 0.7
LQLRRQLSWSEDS [F9W]: 0.119
LCLRRQLSFSEDS [Q2C]: 0.65
LQLRRQLSFSEWS [D12W]: 0.213
LQLRRQLSQSEDS [F9Q]: 0.084
LQLRRQLSFSQDS [E11Q]: 0.384
LQQRRQLSFSEDS [L3Q]: -0.000232
LQLRLQLSFSEDS [R5L]: -0.119
LQLRRQLSFFEDS [S10F]: 0.0458
LQLRRQLQFSEDS [S8Q]: -0.00894
LQLRRQLSLSEDS [F9L]: -0.23
LQPRRQLSFSEDS [L3P]: 1.14
LQLRRQLSRSEDS [F9R]: 0.125
LQLRRQLEFSEDS [S8E]: -0.303
LQLRRQLSFSEMS [D12M]: 0.649

Some of these lines once more (sample 4):
E33C: -1.48 natural log
L52P: -1.46 natural log
S43A: -1.33 natural log
L59S: -1.47 natural log
A49S: -1.52 natural log
R30L: -1.39 natural log
K36Q: -1.5 natural log
